Measurements from different studies.
Compare with care: the assays were run in different laboratories. Numbers after ± are the reported error.

COC1CN([C@H]2CC[C@H]([C@@]3(C)Oc4c(Cl)cc(C(=O)NCc5c(SC)cc(C)[nH]c5=O)c(C)c4O3)CC2)C1  log2 fold change (RNA-seq, item: RORB mouse homolog; mouse, HT-1376 xenograft, whole blood; dose not given; reference: vehicle): 2.3
C=CC(=O)Nc1cccc(Cn2ncc3cnc(Nc4cnn(CCOC)c4)nc32)c1  percent of control (MAPKAPK5 human; binding, KINOMEscan; 100 nM; lower = stronger binding): 96%
Cc1ncsc1-c1ccc(C(C)NC(=O)C2CC(O)CN2C(=O)C(NC(=O)CCCCCCCCCCN2CCCC(Nc3ncc(Cl)c(Nc4ccccc4S(=O)(=O)C(C)C)n3)C2)C(C)(C)C)cc1 (stereo not shown)  log2 fold change (22Rv1; RNA-seq, item: PHLPP2 mRNA; concentration not given; reference: DMSO): -1.03
C[n+]1ccc(/C=N/NC(=O)c2cncc(C(=O)N/N=C/c3cc[n+](C)c4ccccc34)n2)c2ccccc21  ΔTm (myc22 MYC G4-DNA parallel; FRET melting; 1 µM, K1 buffer, DNA 0.2 µM): 21 ± 0.2 °C
CN1CCCNC(=O)c2cccc(c2)C(=O)NCCCN(C)CCCNc2cccc3c2C(=O)c2cccc(c2C3=O)NCCC1  log2 fold change (SAS; RNA-Seq, item: PPME1 mRNA; 1 µM, 6 h; reference: untreated cells): -0.871
C=CC(=O)N1[C@@H](c2ccc3c(c2)OCO3)c2[nH]c3ccccc3c2C[C@H]1C(=O)N1CCN(C)CC1  relative co-enrichment (human cyclin E1 N112C-3xFLAG:CDK2; co-IP with TMT proteomics, item: HNRNPH1; concentration not given, P31943; reference: wild type DMSO): 108%
COc1cc(O)ccc1CCC(c1ccc(O)cc1)c1cc2c(c(C)c1O)OC(c1ccc(O)cc1)CC2 (mixture of isomers)  DHA level (human blood; 30 µM, added: A23187): 114000 ± 38400 pg/mL
O=C(N/N=C/c1cc[n+](CC2CC2)c2ccccc12)c1cncc(C(=O)N/N=C/c2cc[n+](CC3CC3)c3ccccc23)n1  ΔTm (myc22 MYC G4-DNA parallel; FRET melting; 1 µM, K1 buffer, DNA 0.2 µM, added: ds26 10 µM): 20.7 ± 0.3 °C
Nc1ncc(-c2cc(-c3cnn(CC(F)(F)F)c3)ncc2F)nc1C(=O)NC1CNCC(F)C1 (stereo not shown)  remaining binding (AAK1; KINOMEscan; 1 µM; reference: control): 100%
CC[n+]1cccc2cc(/C=N/NC(=O)c3cc(C(=O)N/N=C/c4ccc5c(ccc[n+]5CC)c4)ncn3)ccc21  ΔTm (myc22 MYC G4-DNA parallel; FRET melting; 1 µM, K1 buffer, DNA 0.2 µM): 3.9 ± 0.2 °C
CNS(=O)(=O)Nc1nccc(Cc2c(C)c3ccc(Oc4ncccc4F)cc3oc2=O)c1F  IC50 (NCI-H211; cell viability; 7 days): > 1000 nM
C[n+]1ccc(/C=N/NC(=O)c2cccc(C(=O)N/N=C/c3cc[n+](C)cc3)n2)cc1  ΔTm (myc22 MYC G4-DNA parallel; FRET melting; 1 µM, K1 buffer, DNA 0.2 µM): 5.1 ± 0.3 °C
CCN(CC)CC(=O)Nc1cccc(-n2cc(-c3ccc4ccc(-c5cn(-c6cccc(NC(=O)CN(CC)CC)c6)nn5)cc4c3)nn2)c1  fold regulation (RCC4; PCR angiogenesis array, item: HPSE; 5 x IC50, 4 h, normoxia; reference: untreated): -1.37

Excerpt of the above:
CNS(=O)(=O)Nc1nccc(Cc2c(C)c3ccc(Oc4ncccc4F)cc3oc2=O)c1F  IC50 (NCI-H211; cell viability; 7 days): > 1000 nM
C=CC(=O)N1[C@@H](c2ccc3c(c2)OCO3)c2[nH]c3ccccc3c2C[C@H]1C(=O)N1CCN(C)CC1  relative co-enrichment (human cyclin E1 N112C-3xFLAG:CDK2; co-IP with TMT proteomics, item: HNRNPH1; concentration not given, P31943; reference: wild type DMSO): 108%
